Literature values that unrelated publications cite.
Protocols differ between the studies behind these lines. Values after ≈ are worked out from the molar mass of the structure shown.
Sequence of UniProt P06536 (whole entry, looked up): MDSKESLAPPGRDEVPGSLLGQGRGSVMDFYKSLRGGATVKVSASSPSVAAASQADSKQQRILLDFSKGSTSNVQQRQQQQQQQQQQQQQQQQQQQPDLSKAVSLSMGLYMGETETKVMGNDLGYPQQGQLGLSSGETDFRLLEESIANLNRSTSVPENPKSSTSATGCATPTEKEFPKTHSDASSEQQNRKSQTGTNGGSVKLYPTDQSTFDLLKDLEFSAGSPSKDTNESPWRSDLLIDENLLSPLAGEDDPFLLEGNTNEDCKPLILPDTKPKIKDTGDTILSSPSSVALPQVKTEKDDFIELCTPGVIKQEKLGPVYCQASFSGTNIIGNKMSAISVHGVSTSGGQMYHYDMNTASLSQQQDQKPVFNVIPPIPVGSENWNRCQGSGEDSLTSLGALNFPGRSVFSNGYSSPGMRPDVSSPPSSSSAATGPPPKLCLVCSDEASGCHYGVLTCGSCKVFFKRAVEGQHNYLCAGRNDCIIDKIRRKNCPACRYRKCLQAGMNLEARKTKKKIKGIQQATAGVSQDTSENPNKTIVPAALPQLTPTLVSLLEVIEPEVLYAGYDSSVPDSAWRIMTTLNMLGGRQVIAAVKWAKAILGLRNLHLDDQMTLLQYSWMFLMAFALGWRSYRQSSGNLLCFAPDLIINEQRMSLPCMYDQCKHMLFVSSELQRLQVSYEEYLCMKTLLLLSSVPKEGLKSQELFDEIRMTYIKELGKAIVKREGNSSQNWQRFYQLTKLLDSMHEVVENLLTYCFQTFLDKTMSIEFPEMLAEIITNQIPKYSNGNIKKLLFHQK

Cc1[nH]c(C)c([N+](=O)[O-])c(=O)c1-c1ccc(Oc2ccccc2)cc1
IC50 (Plasmodium falciparum; whole cell extended time; 3D7; 72 h): 270 nM

Nc1cccc2c1C(=O)N(C1CCC(=O)NC1=O)C2=O (centres unmarked)
overall survival (relapsed refractory multiple myeloma patients; dose not given, alternate-day dosing): 35.9 months

CNC(C)C1CCC(N)C(OC2C(N)CC(N)C(OC3OCC(C)(O)C(NC)C3O)C2O)O1 (centres unmarked)
MIC (Acinetobacter baumannii; clinical isolate RKI-No_3/15): 2 µg/mL (≈ 4.19 µM)

COc1ccccc1Oc1cccc(CN2CCC3(CC2)C(=O)NCN3CCc2ccccc2)c1
EC50 (human CCR8 K193A mutant (TM5); IP accumulation, agonist): 8.5 nM

COc1cccc2c(NN=Cc3cccc(F)c3)ccnc12
IC50 (Plasmodium falciparum; whole cell extended time; 3D7; 72 h): 930 nM

CC1(C)S[C@@H]2[C@H](NC(=O)[C@H](N)c3ccccc3)C(=O)N2[C@H]1C(=O)O
MIC (Klebsiella pneumoniae; clinical isolate RKI-No_320/16): ≤ 4 µg/mL

COc1ccccc1Oc1cccc(CN2CCC(NC(=O)C3CC(=O)Nc4ccccc43)CC2)c1 (centres unmarked)
EC50 (human CCR8 L168D mutant (TM4); IP accumulation, agonist): 93 nM

CCC(=O)O[C@]1(C(=O)SCF)[C@H](C)C[C@H]2[C@@H]3C[C@H](F)C4=CC(=O)C=C[C@]4(C)[C@@]3(F)[C@@H](O)C[C@@]21C
receptor occupancy (Nr3c1 (Rattus norvegicus, UniProt P06536); rat, spleen; intravenous, 90 nmol/kg, 2.075 (unit not given)): 45.9%

CCCCc1ccc(-c2ccc(-c3c(C)[nH]c(C)c(Br)c3=O)cn2)cc1
IC50 (Plasmodium falciparum; whole cell extended time; 3D7; 72 h): 60 nM

Nc1cc(C(F)(F)F)c(-c2nc(N3CCOCC3)nc(N3CCOCC3)n2)cn1
GI50 (A204): 102 nM

CCNS(=O)(=O)c1ccc(OC)cc1C1(O)CCN(Cc2cccc(Oc3ccccc3OC)c2)CC1
EC50 (human CCR8 G206A mutant (TM5); IP accumulation, agonist): no effect

C[C@H]1COCCN1c1nc(-c2cnc(N)cc2C(F)F)nc(N2CCOCC2)n1
GI50 (SHP77): 2120 nM

COc1ccccc1Oc1cccc(CN2CCC(NC(=O)C(CCN3CCCC3)c3ccccc3)CC2)c1 (centres unmarked)
EC50 (human CCR8 F112A mutant (TM3); IP accumulation, agonist): 7.1 nM

Cc1cc(=O)c(-c2ccc(Oc3cccc(Cl)c3)cc2)c(C)[nH]1
IC50 (Plasmodium falciparum; whole cell extended time; 3D7; 72 h): 600 nM
